Experimental data from different studies.
Each line is one published result; not all experiments were run side by side. “And” joins repeats or separate records; there may be more than shown.
Target: Dual specificity mitogen-activated protein kinase kinase 1 (MAP2K1, Homo sapiens, UniProt Q02750)
Sequence of UniProt Q02750 (whole entry, looked up): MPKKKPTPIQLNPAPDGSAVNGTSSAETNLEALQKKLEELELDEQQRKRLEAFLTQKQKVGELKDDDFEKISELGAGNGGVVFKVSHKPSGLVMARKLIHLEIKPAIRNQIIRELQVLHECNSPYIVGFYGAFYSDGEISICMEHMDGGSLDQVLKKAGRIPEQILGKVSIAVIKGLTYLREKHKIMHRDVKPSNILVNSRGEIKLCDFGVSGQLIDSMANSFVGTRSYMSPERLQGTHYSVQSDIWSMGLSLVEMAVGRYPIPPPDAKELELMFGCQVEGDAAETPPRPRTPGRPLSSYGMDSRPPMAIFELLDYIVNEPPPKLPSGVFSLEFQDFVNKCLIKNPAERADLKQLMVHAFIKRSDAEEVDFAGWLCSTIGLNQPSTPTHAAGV

`Cc1ccc(C)c(-c2ccc3nc(NC(=O)C4CCCCC4)nn3c2)c1` has a remaining activity of 59% (enzyme activity, Dundee kinase panel; 10 µM).
For `CNC(=O)C1CCN(c2cc(C)c(F)cc2NC(=O)c2ccc(-c3cc(O)ccc3C)c(C)c2)CC1`, the remaining binding was 82% (binding, competition with immobilised ligand; 1 µM).
The inhibition of `C=CC(=O)Nc1cc(-c2nn(C3CCN(CCNC(=O)[C@H](C)CCC45CC6CC(CC(C6)C4)C5)CC3)c3ncnc(N)c23)ccc1Oc1ccccc1` is reported as 5.1% (inhibitor, KiNativ profiling; biochemical; 2 µM).
`O=c1c(-c2ccc(Cl)c(CN3CCOCC3)c2)coc2cc(O)ccc12` has a remaining activity of 85% (enzyme activity, inhibitor; 1 µM).
`CC(=O)N1c2ccc(-c3ccc(CNC(=O)c4cn5cc(-c6cnc(N)nc6)nc(N6CCOCC6)c5n4)cc3)cc2CC[C@@H]1C` gave a remaining binding of 86% (KINOMEscan; 10 µM).
`Cc1cccc(O[C@H]2CCC[C@@H](C(C)CNCc3ccncc3)C2)c1` (relative stereo) has an inhibition of -9% (enzyme activity, inhibitor; 10 µM).
`COc1ccc(NC(=O)Nc2ccc3c(c2)C(=O)N(C(C)CO)CC(C)C(CN(C)Cc2ccc4c(c2)OCO4)O3)cc1` (stereo not shown) gave a remaining activity of 106% (kinase activity, KinaseProfiler; 0.03 µM, species human; baseline: control).
The remaining activity of `Nc1ncc(-c2cc(-c3cnn(CC(F)(F)F)c3)ncc2F)nc1C(=O)NC1CNCC(F)C1` (stereo not shown) is reported as 99.9% (enzyme activity; 1 µM; baseline: DMSO control).
`CNS(=O)(=O)Nc1nccc(Cc2c(C)c3ccc(Oc4ncccc4F)cc3oc2=O)c1F` gave a remaining binding of 0% (binding, competition with immobilised ligand; 10 µM).
The remaining binding of `Cc1c[nH]c2nccc(-c3ccc(C(=O)N[C@@H]4c5c(F)cc(C(F)F)cc5C[C@@H]4O)cn3)c12` is reported as 0.3% (binding, competition with immobilised ligand; 3 µM).
For `CCn1cc(C(=O)O)c(=O)c2c(N)c(F)c(NC3CCCCC3)cc21`, the inhibition was 2.6% (kinase activity; 0.1 µM, together with: ATP at Km).
`CNC1C[S+]2CC[S+]3CC[S+](C1)[Ru-4]321([N]=C=S)[n]2c3ccc(OC)cc3c3c4c(c5cc(F)c[n+]1c5c32)C(=O)NC4=O` (stereo not shown) has a remaining binding of 100% (KinomeScan; 0.1 µM; baseline: untreated).
The inhibition of `NC(=O)C[C@H]1CCc2sc3ncnc(O[C@H]4CC[C@H](N5CCOCC5)CC4)c3c21` is reported as 7% (enzyme activity, inhibitor; 10 µM).
`Cc1cccc(-c2ccc3nc(NC(=O)C4CCCO4)nn3c2)c1` (stereo not shown) gave a remaining activity of 47% (enzyme activity, Dundee kinase panel; 10 µM).
With `CCOC(=O)c1ccc2n[nH]cc2c1` the binding response was 0.9 RU (SPR; 200 µM, 25 °C).
With `C=CC(=O)Nc1cccc(-c2cnc3[nH]cc(C(=O)NC(C)(C)C)c3n2)c1` the inhibition was 5% and 6% (kinase activity; 0.1 µM).

A few entries again:
`O=c1c(-c2ccc(Cl)c(CN3CCOCC3)c2)coc2cc(O)ccc12` has a remaining activity of 85% (enzyme activity, inhibitor; 1 µM).
With `C=CC(=O)Nc1cccc(-c2cnc3[nH]cc(C(=O)NC(C)(C)C)c3n2)c1` the inhibition was 5% and 6% (kinase activity; 0.1 µM).
